# Assay results gathered from unrelated publications.
# Parts stem from different laboratories: compare values within a part only. Positions count from the first letter of the parent shown.

# Study 1
# Target: Sal-like protein 4, full length isoform A (SALL4, Homo sapiens, UniProt Q9UJQ4, residues 1-1053)
# UniProt Q9UJQ4, sequence (whole entry, looked up): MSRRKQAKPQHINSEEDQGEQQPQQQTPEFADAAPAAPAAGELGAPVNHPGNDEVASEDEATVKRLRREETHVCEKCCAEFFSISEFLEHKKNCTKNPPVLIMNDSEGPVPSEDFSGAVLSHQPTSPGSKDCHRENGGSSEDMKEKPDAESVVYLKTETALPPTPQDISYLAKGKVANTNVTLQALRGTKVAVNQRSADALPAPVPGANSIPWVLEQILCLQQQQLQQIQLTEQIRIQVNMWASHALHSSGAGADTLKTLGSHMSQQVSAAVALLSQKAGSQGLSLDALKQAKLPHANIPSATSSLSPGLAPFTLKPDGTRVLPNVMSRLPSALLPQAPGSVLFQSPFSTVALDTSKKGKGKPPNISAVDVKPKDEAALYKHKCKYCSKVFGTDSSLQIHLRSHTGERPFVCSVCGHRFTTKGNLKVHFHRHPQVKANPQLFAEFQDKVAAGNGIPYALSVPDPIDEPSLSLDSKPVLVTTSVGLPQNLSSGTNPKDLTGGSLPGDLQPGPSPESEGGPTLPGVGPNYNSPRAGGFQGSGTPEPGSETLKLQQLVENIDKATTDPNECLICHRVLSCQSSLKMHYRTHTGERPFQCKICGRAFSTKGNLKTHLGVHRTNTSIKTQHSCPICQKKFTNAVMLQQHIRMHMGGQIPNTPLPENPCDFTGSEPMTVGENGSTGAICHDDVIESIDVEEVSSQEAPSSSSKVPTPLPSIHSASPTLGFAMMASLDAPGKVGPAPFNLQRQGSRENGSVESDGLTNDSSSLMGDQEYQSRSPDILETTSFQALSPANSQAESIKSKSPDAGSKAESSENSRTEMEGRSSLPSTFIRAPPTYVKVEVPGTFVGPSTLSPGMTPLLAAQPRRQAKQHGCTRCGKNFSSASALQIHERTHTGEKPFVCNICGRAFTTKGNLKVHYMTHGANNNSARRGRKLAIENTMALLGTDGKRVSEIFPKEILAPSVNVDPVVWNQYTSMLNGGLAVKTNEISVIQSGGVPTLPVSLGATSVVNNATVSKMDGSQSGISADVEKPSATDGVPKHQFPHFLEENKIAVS
# Technique: universal PBM
# Molecule type: double-stranded DNA, one strand shown
# Matrix: in vitro
# Tested at: 600 nM
# Notes: 8-mer, flanks averaged, mean of replicates
# Reading: higher = stronger binding
Oligonucleotide,E-score
AGAGCTAG,-0.0712
CCGATCTA,-0.0825
CGCTGCCG,-0.317
ACAGTTGA,-0.0755
AAGTAGAC,-0.106
TGGAAAAA,0.285
CCCTAAGA,-0.207
AGGCCAAG,-0.198
GTCTATAA,0.247
GGTATTTA,0.172
TGGATCAA,0.161
TCGACTAA,0.0923
CCACAATC,-0.0639
GTATCGCA,0.0163
GCTCGTAA,-0.0352
CGGGGACG,-0.326
ACTGATTA,0.232
AGACGCAG,-0.173
AATGGTCT,0.114
AAAGAAAG,0.167
CTCACGGA,-0.23
TCACCGAA,-0.00106
CTGGTGCC,-0.319
ATGGGATC,0.0917
AAGAGTCG,-0.0257

# Study 2
# Target: Ras GTPase-activating protein-binding protein 1, full length (G3BP1, Homo sapiens, UniProt Q13283)
# UniProt Q13283, sequence (whole entry, looked up): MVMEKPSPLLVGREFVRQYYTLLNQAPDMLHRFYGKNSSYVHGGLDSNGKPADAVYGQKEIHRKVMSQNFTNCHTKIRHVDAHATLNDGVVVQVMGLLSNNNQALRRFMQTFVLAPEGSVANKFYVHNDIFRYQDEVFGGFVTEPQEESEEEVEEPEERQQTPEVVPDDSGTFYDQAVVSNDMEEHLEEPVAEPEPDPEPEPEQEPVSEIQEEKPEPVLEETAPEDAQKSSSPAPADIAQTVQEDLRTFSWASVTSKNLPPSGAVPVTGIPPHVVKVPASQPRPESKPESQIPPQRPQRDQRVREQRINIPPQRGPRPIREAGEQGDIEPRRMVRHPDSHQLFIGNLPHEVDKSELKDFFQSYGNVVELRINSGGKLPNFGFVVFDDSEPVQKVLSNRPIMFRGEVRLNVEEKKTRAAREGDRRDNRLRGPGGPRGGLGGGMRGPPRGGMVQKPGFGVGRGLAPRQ
# Technique: RNA Bind-n-Seq
# Molecule type: RNA
# Matrix: in vitro
# Tested at: 200 nM
# Notes: whole 134-nt RNA, ends assumed
# Together with: 150 mM KCl
# Baseline: input library
# Reading: higher = stronger binding
# Shared flanks, not repeated: GGGAGUUCUACAGUCCGACGAUC … UGGAAUUCUCGGGUGUCAAGG
Oligonucleotide,log2 enrichment
CCUGUGCUACACAUCGUAUGUACCGAAUCGGGGAAAAAAGGGGAAAAAAGGGAAAAAAGGAAAGUAUUAUGUUACGCCGUUCGGAUCUGC,-0.477
UUCACCAGUUUCACUGUGAGCCUCAACGAGCUGGAGACAGGCAUGGAGAAGACCCUGCCACCCACGGACUGCCGCCUGCGCCCUGACAUC,-0.0356
UCCUCAAGUCCUGUGCUACACAUCGUAUGUACCGAAUCGGAGGGAGGAGGGGAAAGUAUUAUGUUACGCCGUUCGGAUCUGCACUUCCAG,0.544
AAAUGGUAGUGUGCGGAGUUUUUUUUUCUUCCUUCUUUUAAAAAUGGUUGUUUAAGACUUUAACAAUGGGAACCCCUUGUGAGCAUGCUC,-1.33
CCUGUGCUACACAUCGUAUGUACCGAAUCGGUUUUUUUGGUUUUUUUGGGUUUUUUUGGGGAAAGUAUUAUGUUACGCCGUUCGGAUCUG,-1.08
GUCCUGUGCUACACAUCGUAUGUACCGAAUCGGAAAAAAGGGAAAAAAGGAAAAAAGGAAAGUAUUAUGUUACGCCGUUCGGAUCUGCAC,-1.04
CACAGACAACACGCACCCACACAGACACAGAGGGAAAGGGUUGGGAUGGGGACAGGGUGCACAGCAGGGCGGGGUAGGACCCCAGCCCCU,1.86
UAACUUUAGAGGAGGAUCUGAUGGAUAUGGCAGUGGACGUGGAUUUGGGGAUGGCUAUAAUGGGUAUGGAGGAGGACCUGGAGGUGGGAA,0.381
CUCAAGUCCUGUGCUACACAUCGUAUGUACCGAAUCGGAAAAAGGAGGUUUGGAAAGUAUUAUGUUACGCCGUUCGGAUCUGCACUUCCA,-0.704

# Study 3
# Target: Interferon regulatory factor 7, full length, phosphomimetic (IRF7, Homo sapiens, UniProt Q92985, residues 1-503, S471D/S472D/S475D/S476D/S477D/S483D/S484D/S487D)
# Technique: protein-binding microarray
# Molecule type: double-stranded DNA, one strand shown
# Matrix: in vitro
# Tested at: 2200 nM top
# Notes: 60-bp whole probe
# Together with: salmon DNA 0.4 mg/ml
# Baseline: random background probes
# Reading: higher = stronger binding
# Shared flanks, not repeated: GCCTAGCAC … GTCTTGATTCGCTTGACGCTGCTG
# Target sequence (chain): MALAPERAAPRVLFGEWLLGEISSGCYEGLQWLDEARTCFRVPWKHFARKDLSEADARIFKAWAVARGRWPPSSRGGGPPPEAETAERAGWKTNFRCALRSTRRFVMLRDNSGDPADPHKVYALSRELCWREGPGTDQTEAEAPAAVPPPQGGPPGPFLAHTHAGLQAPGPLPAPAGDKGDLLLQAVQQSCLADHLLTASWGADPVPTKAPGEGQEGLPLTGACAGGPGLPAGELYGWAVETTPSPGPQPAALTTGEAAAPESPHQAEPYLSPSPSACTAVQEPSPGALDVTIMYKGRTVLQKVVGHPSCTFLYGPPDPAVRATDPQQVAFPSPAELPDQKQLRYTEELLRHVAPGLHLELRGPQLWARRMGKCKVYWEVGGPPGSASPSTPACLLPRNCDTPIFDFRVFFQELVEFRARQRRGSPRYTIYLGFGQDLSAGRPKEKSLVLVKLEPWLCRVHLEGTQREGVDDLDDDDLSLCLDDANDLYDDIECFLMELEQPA
Oligonucleotide,fitted relative affinity [z-score]
AGCTGTTTGAGAAATCAGATGGTGCTA,-0.291
GACGGTTTCGGCTTTCGGGACGTGCTA,6.88
ATCCATTTTGGTTTTCATTAGTGCTAG,3.24
GACGGACTGGTACTGCTGACGTGCTAG,-0.427
AACGAACTGAGTTTCGAGACGTGCTAG,2.05
GACGGTATCGACTATCGAGACGTGCTA,-0.0707
TTAGGTTTCCTTCTCCTTCAGTGCTAG,2.47
TTAGGAATCGGTATCGGTTAGTGCTAG,0.402
GACGGACCGGACTTTCGGGACGTGCTA,1.83
TTAGATTTCGCGTTTCGATTAGTGCTA,3.45
TTAGATCTTAGTCTCGATTAGTGCTAG,0.242
TTAGGTTCCCGTTTCGGTTAGTGCTAG,5.38
GACAAACTGAGTTTCGAGACGTGCTAG,2.17
GACGATTGCAGTTCCGAGACGTGCTAG,0.539
TTAGGACTGCTTTTGCTTTAGTGCTAG,1.82
GACGGTCTCGGTATCGGGATGTGCTAG,0.141
TTAGATTTCAGTTCCGATAAGTGCTAG,1.44
GAACATACTAATTTCCATTTGTGCTAG,2.43
TCATTTATGGTATTTTTACTGTGCTAG,1.06

# Study 4
# Target: NFE2, bZIP domain (human)
# Technique: DHFR protein complementation
# Matrix: yeast
# Notes: single substitutions, most at no-binding floor
# Baseline: wild-type JUN-FOS pair
# Reading: higher = stronger binding
# Parent: JUN, bZIP domain (human); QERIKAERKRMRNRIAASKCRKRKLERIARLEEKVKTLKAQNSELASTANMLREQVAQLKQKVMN; partner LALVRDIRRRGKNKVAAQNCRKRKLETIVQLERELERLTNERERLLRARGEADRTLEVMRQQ
Change,binding fitness
L45A,-1.51 natural log
L31A,-1.36 natural log
S47L,-1.23 natural log
V56S,-1.47 natural log
M51P,-1.5 natural log
L52T,-1.52 natural log
E32W,-1.56 natural log
A49S,-1.49 natural log
E32S,-1.27 natural log
A46H,-1.51 natural log
A57E,-1.5 natural log
E54F,-1.51 natural log

# Some of these lines once more (study 1):
Oligonucleotide,E-score
GTCTATAA,0.247
ACTGATTA,0.232
AAGTAGAC,-0.106
AAAGAAAG,0.167
CTCACGGA,-0.23
AAGAGTCG,-0.0257
AGACGCAG,-0.173
TCACCGAA,-0.00106
GCTCGTAA,-0.0352
CTGGTGCC,-0.319
